Measured values collected from several papers.
Lines come from different studies, so protocols differ.
Organism: Micrococcus luteus

Cc1ccc(-c2nc3ccc(C)cn3c2CC(=O)NCc2ccc(N(C)C)cc2)cc1 — inhibition zone (microbial growth; ATCC10240; 2 mM, 20 h): 17 mm
CC(C)C[C@H](NC(=O)[C@H](CCCNC(=N)N)NC(=O)[C@H](C)NC(=O)[C@H](CC(C)C)NC(=O)[C@H](CCCNC(=N)N)NC(=O)[C@H](C)NC(=O)[C@H](CCCCN)NC(=O)[C@H](CC(C)C)NC(=O)[C@H](CCCNC(=N)N)NC(=O)[C@H](Cc1ccc(O)cc1)NC(=O)[C@H](CC(C)C)NC(=O)[C@H](CCCNC(=N)N)NC(=O)[C@H](C)NC(=O)[C@H](CCCNC(=N)N)NC(=O)[C@H](CC(C)C)NC(=O)[C@H](CCCCN)NC(=O)[C@H](C)NC(=O)[C@H](CC(C)C)NC(=O)[C@H](CCCNC(=N)N)NC(=O)[C@H](C)NC(=O)[C@@H](N)CCCCN)C(N)=O — MIC (broth microdilution; ATCC 7468; 24 h): < 1 µM
Cc1ccc2[nH]c3c(c2c1)CCCC3NCCc1ccc(Br)cc1 (stereo not drawn) — MIC (broth microdilution; DSM 1790): 2 µg/mL
CCc1ccn2c(C(=O)NCc3ccccc3)c(C)nc2c1 — inhibition zone (microbial growth; ATCC10240; 2 mM, 20 h): 0 mm
c1ccc(CCNC2CCCc3c2[nH]c2ccc(C4CCCCC4)cc32)cc1 (stereo not drawn) — MIC (microbial growth, broth dilution; DSM1790): 1 µg/mL
CC[C@H](C)[C@H](NC(=O)[C@H](CC(C)C)NC(=O)[C@H](CO)NC(=O)[C@H](Cc1ccc(O)cc1)NC(=O)CNC(=O)CNC(=O)[C@@H](NC(=O)[C@H](CCCCN)NC(=O)[C@H](Cc1ccc(O)cc1)NC(=O)[C@H](CO)NC(=O)[C@H](CC(N)=O)NC(=O)[C@H](CCCCN)NC(=O)[C@H](CCCCN)NC(=O)[C@H](CO)NC(=O)CNC(=O)[C@H](CCCCN)NC(=O)[C@H](CCCCN)NC(=O)[C@H](CCCNC(=N)N)NC(=O)[C@H](CCCNC(=N)N)NC(=O)[C@@H]1CCCN1)[C@@H](C)O)C(=O)N[C@@H](CO)C(=O)N[C@@H](CC(C)C)C(=O)NCC(=O)N[C@@H](CCCCN)C(=O)N1CCC[C@H]1C(=O)N[C@@H](CC(N)=O)C(=O)N[C@H](C(=O)N[C@@H](Cc1c[nH]cn1)C(=O)N[C@@H](CCCCN)C(=O)N[C@@H](C)C(=O)N1CCC[C@H]1C(=O)N[C@@H](Cc1ccc(O)cc1)C(=O)N[C@@H](CCSC)C(=O)N[C@@H](CCC(=O)O)C(=O)N[C@@H](CO)C(=O)N[C@@H](CC(C)C)C(=O)O)C(C)C — MIC (broth microdilution; ATCC 4698): 15.9 µM
Cc1ccc2nc(C)c(C(=O)C(=O)NCc3ccccc3)n2c1 — inhibition zone (microbial growth; ATCC10240; 2 mM, 20 h): 0 mm
CC[C@H](C)[C@@H]1NC(=O)[C@@H]2CCCN2C(=O)[C@H](C)NC(=O)[C@H](CC(C)C)NC(=O)[C@@H]2CCCN2C(=O)[C@H](C)NC(=O)[C@@H]2CSSC[C@H](NC(=O)[C@H](C)NC(=O)[C@H](C)NC(=O)[C@H](Cc3ccc(O)cc3)NC(=O)[C@@H]3CCCN3C(=O)CNC(=O)[C@H](Cc3c[nH]c4ccccc34)NC1=O)C(=O)N[C@@H](CC(C)C)C(=O)N[C@@H](CO)C(=O)N[C@@H](C)C(=O)N[C@H]1CSSC[C@H](NC(=O)[C@H](C(C)C)NC(=O)[C@@H]3CCCN3C(=O)CNC(=O)CNC(=O)CNC(=O)[C@H](C)NC(=O)[C@H](C)NC(=O)[C@H](CC(C)C)NC1=O)C(=O)N[C@@H](CC(C)C)C(=O)N[C@@H](C)C(=O)N[C@@H](C(C)C)C(=O)N2 — MIC (CMCC(B)28001): > 128 µg/mL
Cc1ccc2nc(C)c(C(=O)NCc3ccccc3)n2c1 — inhibition zone (microbial growth; ATCC10240; 2 mM): 0 mm
CC[C@H](C)[C@H](NC(=O)[C@H](CCCNC(=N)N)NC(=O)[C@H](CC(=O)O)NC(=O)[C@H](CCCNC(=N)N)NC(=O)[C@H](CC(C)C)NC(=O)[C@H](CC(N)=O)NC(=O)[C@H](CCCNC(=N)N)NC(=O)[C@@H](N)Cc1ccccc1)C(=O)N[C@@H](CCCCN)C(=O)N[C@@H](CC(N)=O)C(=O)N[C@@H](CCCCN)C(=O)N[C@@H](Cc1ccccc1)C(=O)N[C@@H](CCC(=O)O)C(=O)N[C@@H](CC(N)=O)C(=O)N[C@@H](C)C(=O)N[C@@H](CC(C)C)C(=O)N[C@@H](CCCCN)C(=O)N[C@@H](CC(N)=O)C(=O)N[C@H](C(=O)N[C@H](C(=O)N[C@@H](CC(N)=O)C(=O)N[C@@H](CCCCN)C(=O)N[C@@H](CC(C)C)C(=O)N[C@@H](Cc1ccccc1)C(=O)N1CCC[C@H]1C(=O)O)[C@@H](C)CC)C(C)C — MIC (broth microdilution; ATCC 4698): 2.59 µM
CC(C)C[C@H](NC(=O)[C@H](Cc1ccccc1)NC(=O)[C@H](CCC(N)=O)NC(=O)[C@H](Cc1ccc(O)cc1)NC(=O)[C@H](CCCCN)NC(=O)[C@@H]1CCCN1C(=O)[C@H](CCCNC(=N)N)NC(=O)[C@H](CCC(N)=O)NC(=O)[C@H](Cc1c[nH]c2ccccc12)NC(=O)[C@H](CS)NC(=O)[C@H](Cc1c[nH]c2ccccc12)NC(=O)[C@H](Cc1ccccc1)NC(=O)[C@H](CCCNC(=N)N)NC(=O)[C@H](CCCCN)NC(=O)[C@H](CCCCN)NC(=O)[C@H](CCCCN)NC(=O)[C@@H](NC(=O)[C@@H](NC(=O)[C@H](CC(C)C)NC(=O)[C@@H](N)CO)C(C)C)[C@@H](C)O)C(=O)O — MBC/MIC ratio (NCTC 2665): 1.28
CC(C)C[C@H](NC(=O)[C@H](CCCCN)NC(=O)[C@H](C)NC(=O)[C@H](CC(C)C)NC(=O)[C@H](CCCCN)NC(=O)[C@H](CCC(N)=O)NC(=O)[C@H](CCCCN)NC(=O)[C@H](CC(C)C)NC(=O)[C@H](CCCCN)NC(=O)[C@H](CCC(N)=O)NC(=O)[C@H](CC(C)C)NC(=O)[C@H](CCCCN)NC(=O)[C@H](C)NC(=O)[C@H](CCCCN)NC(=O)[C@H](CC(C)C)NC(=O)[C@H](CCCCN)NC(=O)[C@H](C)NC(=O)[C@H](CC(C)C)NC(=O)[C@H](CCCCN)NC(=O)[C@H](CCC(N)=O)NC(=O)[C@@H](N)CCCCN)C(N)=O — MIC (broth microdilution; ATCC 7468; 24 h): 7.1 µM

Excerpt of the above:
CC[C@H](C)[C@H](NC(=O)[C@H](CCCNC(=N)N)NC(=O)[C@H](CC(=O)O)NC(=O)[C@H](CCCNC(=N)N)NC(=O)[C@H](CC(C)C)NC(=O)[C@H](CC(N)=O)NC(=O)[C@H](CCCNC(=N)N)NC(=O)[C@@H](N)Cc1ccccc1)C(=O)N[C@@H](CCCCN)C(=O)N[C@@H](CC(N)=O)C(=O)N[C@@H](CCCCN)C(=O)N[C@@H](Cc1ccccc1)C(=O)N[C@@H](CCC(=O)O)C(=O)N[C@@H](CC(N)=O)C(=O)N[C@@H](C)C(=O)N[C@@H](CC(C)C)C(=O)N[C@@H](CCCCN)C(=O)N[C@@H](CC(N)=O)C(=O)N[C@H](C(=O)N[C@H](C(=O)N[C@@H](CC(N)=O)C(=O)N[C@@H](CCCCN)C(=O)N[C@@H](CC(C)C)C(=O)N[C@@H](Cc1ccccc1)C(=O)N1CCC[C@H]1C(=O)O)[C@@H](C)CC)C(C)C — MIC (broth microdilution; ATCC 4698): 2.59 µM
